Assay results of several laboratories.
Parts stem from different laboratories: compare values within a part only. Positions count from the first letter of the parent shown.

Block 1
Target: Interferon regulatory factor 3, full length, phosphomimetic (IRF3, Homo sapiens, UniProt Q14653, residues 1-427, S386D/S396D/S398D/S402D/T404D/S405D)
Method: protein-binding microarray
Molecule type: double-stranded DNA, one strand shown
Matrix: in vitro
Tested at: 2540 nM top
Notes: 60-bp whole probe
Added: salmon DNA 0.4 mg/ml
Baseline: random background probes
Direction: higher = stronger binding
Shared flanks, not repeated: GCCTAGCAC … GTCTTGATTCGCTTGACGCTGCTG
Residues (chain): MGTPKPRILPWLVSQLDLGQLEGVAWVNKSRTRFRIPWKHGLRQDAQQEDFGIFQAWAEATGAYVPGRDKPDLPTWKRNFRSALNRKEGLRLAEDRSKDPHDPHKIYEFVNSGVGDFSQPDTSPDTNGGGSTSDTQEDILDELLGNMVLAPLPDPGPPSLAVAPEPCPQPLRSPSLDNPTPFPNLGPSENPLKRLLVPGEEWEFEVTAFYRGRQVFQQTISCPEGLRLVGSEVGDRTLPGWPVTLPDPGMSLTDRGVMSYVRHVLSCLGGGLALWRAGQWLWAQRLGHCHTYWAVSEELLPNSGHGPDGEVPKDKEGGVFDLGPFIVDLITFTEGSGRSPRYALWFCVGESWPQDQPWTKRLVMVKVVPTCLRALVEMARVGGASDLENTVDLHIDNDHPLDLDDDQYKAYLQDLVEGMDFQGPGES
Strand | fitted relative affinity [z-score]
GACGGTTTCCTTTTTCTGACGTGCTAG | 10.2
TTAGGTTTCGGAACTGGGTTAGTGCTA | 7.64
TTAGGTTTCGGTCTCGGTGAGTGCTAG | 9.05
GTAGATGCCTTTCTCTTGGAGTGCTAG | 4.51
TTAGGACTGGGACTGGGTCAGTGCTAG | -1
TTAGGTATCGACACTGCGTTAGTGCTA | 0.169
TTAGGTATCGGTTTCGGTTGGTGCTAG | 7.31
TTAGTACTGGGGTATCGGTTAGTGCTA | 0.242

Block 2
Target: TAR DNA-binding protein 43, full length, His tag (TARDBP, Homo sapiens, UniProt Q13148, residues 1-414)
Method: RNA Bind-n-Seq
Molecule type: RNA
Matrix: in vitro
Tested at: 20 nM
Notes: 6-mer, flanks averaged, single round
Added: 150 mM KCl
Baseline: input library
Direction: higher = stronger binding
Strand | 6-mer enrichment (R)
CAUUGC | 0.618
GAUCAU | 0.61
UAUCCA | 0.567
AGCGUG | 1.45
CAGAGC | 0.881
GAUGGA | 1.46
UGACCC | 0.685
AAACCU | 0.576

Block 3
Substance: KRT18 (Homo sapiens, UniProt P05783)
Method: cross-linking MS
Matrix: cells
Added: BSPNO
partner | cross-linked residues
Leucine-rich repeat transmembrane protein 3 (Homo sapiens, UniProt Q8NDH2) | K187 to K6039
DSP (Homo sapiens, UniProt P15924) | K187 to K2451
KRT74 (Homo sapiens, UniProt Q7RTS7) | K247 to K150
ARMCX3 (Homo sapiens, UniProt Q9UH62) | K187 to M1

Block 4
Target: Hepatocyte nuclear factor 3-alpha (Foxa1, Mus musculus, UniProt P35582, residues 1-468, full length assumed)
Method: EMSA with sequencing
Molecule type: double-stranded DNA, one strand shown
Matrix: in vitro
Tested at: 10 and 20 nM
Notes: whole designed probe, mean of two concentrations, ends assumed
Baseline: negative control set to 0
Direction: higher = stronger binding
Target sequence (chain): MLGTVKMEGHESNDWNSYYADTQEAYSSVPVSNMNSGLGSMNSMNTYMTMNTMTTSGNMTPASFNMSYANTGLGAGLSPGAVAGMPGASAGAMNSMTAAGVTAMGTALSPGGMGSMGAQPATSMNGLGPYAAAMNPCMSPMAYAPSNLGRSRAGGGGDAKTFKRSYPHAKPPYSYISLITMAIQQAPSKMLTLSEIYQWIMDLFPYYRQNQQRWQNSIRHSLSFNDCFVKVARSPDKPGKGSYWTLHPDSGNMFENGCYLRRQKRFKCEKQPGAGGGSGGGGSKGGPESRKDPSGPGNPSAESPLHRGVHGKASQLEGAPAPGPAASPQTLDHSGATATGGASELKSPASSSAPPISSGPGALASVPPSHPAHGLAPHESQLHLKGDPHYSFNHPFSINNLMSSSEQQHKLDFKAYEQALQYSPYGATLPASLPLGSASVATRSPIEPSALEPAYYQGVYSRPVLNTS
Strand | normalised bound fraction [ratio]
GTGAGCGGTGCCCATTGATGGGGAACATTTCCCCCAGCCAGTTTTAAATGTGTTATCTGAGCAAGCAAAACCTAAGAATTTCGGTCTTTAAGGACCAGAAATCTGGGACCCAGGCCAAAGTAAACATAGTGGCAATGTATTGCTAAACCCAAATGCAACATTGCTAACCAGTTGCTCAGATGTTCTCACAAAGTAATATTTTCTAACAGTTAGTGATTCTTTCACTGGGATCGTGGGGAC | 0.385
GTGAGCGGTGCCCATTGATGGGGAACAGATGTAAAACAAAATGGATGTAGACAGCCGATTGTAGACGTAAAGCAAAATGGGTGTAGACAGCTAATTGACTCAACCATACTCTGGGCATGTATTTACTCAATGCTACAATGGGCTGAGTCATGCTCGAGGTGCTGGAGAGATTTCTGCCAAGAAAAGAGAGAAAAACCCCTGTCCTCCCACATCTGACGCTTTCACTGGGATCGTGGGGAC | 0.281
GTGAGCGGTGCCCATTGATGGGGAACGGGCCACCTTCCCTCCCTGCGCCAAGGCCTGATCGGACTGGGAGATAAACTGCACTGGCAGCTGTCCTGGCAGAGCTCTGAATCACTGCTGTGCAAACATGACCCTCCTTCACTGCGACTGCCAGCTTTGTTATCTAGAATGCAAACACAATGCAACCATCCTTAGCTCCAGATTAACAACAACAAAAACATCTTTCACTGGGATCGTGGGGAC | 0.383
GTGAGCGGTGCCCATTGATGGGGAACGAGGACAGAGGGGATAATTTTTCTGCCTACCATAACAATTACCCAAGTAATATACGCAAATGCACCCTGTAGATCACAAAGTATTATACGTATGTAAATAATTTCTATTAGAAAGAACAAGAAAATAATGGTTATGGTTTCACGGTTAATTAGCAGCAGAGCTCATCTCAGCCTCAGTTCTCATAATTACCTGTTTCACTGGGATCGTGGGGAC | 0.24
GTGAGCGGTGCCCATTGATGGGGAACATCTTCCCCCTCTTCCTTGCCCCACCAGCTCACCTACGGGGGTTATTTGCACAAAGGAAAATAAATAAAGCCGGCATTCGTTAACCCTCTTCACGCGCATACTGCTGTTTGCTCTGCATCTAACATGGTCCTTACGCGACGCCAGGCTCCGGGAGAGCAAAGCACCGTGTCAGGCGCATGATCCGGGCTCGCCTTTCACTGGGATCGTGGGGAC | 0.392
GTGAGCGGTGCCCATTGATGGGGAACATCTTCCCCCTCTTCCTTGCCCCACCAGCTCACCTTCCCGGGTATATTGGAGATAGGAAATTAATATAAGCCGGCATTCGTTAACCCTCTTCTGGCGCAAACTGCACATTGGTCTGGATGAATCATGGTCCTTTGGCGACGCCAGGCTCCGGGAGAGCAAAGCACCGTGTCAGGGCCATGATCCGGGGTGGCCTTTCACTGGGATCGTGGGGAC | 0
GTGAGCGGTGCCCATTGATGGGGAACAGTGCTTCATTTTTCGTGCCCGCCCCGCGCCCCGGGCAGGCCAGTCATGTGTTAAGTTGCGCTTCTTTGCTGTGATGTGGGTGGGGGAGGAAGAGTAAACACAGTGCTGGCTCGGCTGCCCTGAGGGTGCTCAATCAAGCACAGGTTTCAAGTCTGGGTTCTGGTGTCCACTCACCCACCCCACCCCCCAAAATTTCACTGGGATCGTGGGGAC | 0.309
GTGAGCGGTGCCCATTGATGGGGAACCAATGGGGTAGGTCAGCCCCAGTGAACTCTCAAATGACCACTGAAGGACGTAGTGAGTGCAGAGTGTGATACCACTCACATCCCAGCCCAGACTGTTTGCTCAGCTGGGAGGAGTGTTGCAATTCTTCTACGTGCAGAGATAACACCCCTTCTCATGGCTTCAGGCATCACCTATCTCCTCTAGGCTGCGCTCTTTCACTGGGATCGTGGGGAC | 0.198

Block 5
Target: CCNF, cyclin fold, Cln2 fusion (human)
Method: yeast growth competition, sequencing
Matrix: yeast
Notes: strong parent motif
Baseline: not given
Direction: higher = stronger binding
Parent: viral docking peptide; TSVRRALFTGGSD; partner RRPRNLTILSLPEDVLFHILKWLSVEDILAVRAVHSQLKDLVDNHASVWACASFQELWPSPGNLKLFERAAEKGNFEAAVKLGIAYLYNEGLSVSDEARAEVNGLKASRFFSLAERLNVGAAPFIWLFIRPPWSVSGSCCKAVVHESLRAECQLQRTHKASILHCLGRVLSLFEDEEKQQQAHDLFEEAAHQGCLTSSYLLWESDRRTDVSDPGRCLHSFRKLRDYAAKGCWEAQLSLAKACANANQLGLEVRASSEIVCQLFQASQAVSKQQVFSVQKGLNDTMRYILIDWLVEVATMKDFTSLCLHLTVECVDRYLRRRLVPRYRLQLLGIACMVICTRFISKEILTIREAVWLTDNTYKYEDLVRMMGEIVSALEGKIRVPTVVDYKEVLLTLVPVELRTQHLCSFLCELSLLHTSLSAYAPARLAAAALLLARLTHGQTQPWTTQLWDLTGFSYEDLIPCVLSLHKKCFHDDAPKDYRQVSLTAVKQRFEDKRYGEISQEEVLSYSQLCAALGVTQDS
Variant | normalised enrichment score
S12Y | 8.6
R5K | 5.47
S12V | 8.27
V3N | 0.437
V3R | 1.28
R4D | 0.623
F8C | 1
S2G | 8.55
R4K | 7.26
L7G | 0.126
G10H | 8.21
T9K | 8.93
F8S | 0.981
R5G | 0.124
T9A | 7.99
V3A | 7.33
T9H | 8.74
G11E | 7.63
A6T | 7.33
L7H | -0.109
R5K F8L | 0.344
V3I | 8.34
S2C | 8.17
R5Q | 1.18
F8A | 0.711

Repeated from above (block 5):
Variant | normalised enrichment score
V3A | 7.33
T9H | 8.74
G11E | 7.63
A6T | 7.33
L7H | -0.109
R5K F8L | 0.344
V3I | 8.34
S2C | 8.17
R5Q | 1.18
